Measured values gathered from unrelated publications.
Protocols differ between the studies behind these lines. ± gives the spread as reported.
HCRTR1: Orexin/Hypocretin receptor type 1 (HCRTR1, Homo sapiens, UniProt O43613)
GRB2: Growth factor receptor-bound protein 2 (GRB2, Homo sapiens, UniProt P62993)
UniProt P62993, sequence (whole entry, looked up): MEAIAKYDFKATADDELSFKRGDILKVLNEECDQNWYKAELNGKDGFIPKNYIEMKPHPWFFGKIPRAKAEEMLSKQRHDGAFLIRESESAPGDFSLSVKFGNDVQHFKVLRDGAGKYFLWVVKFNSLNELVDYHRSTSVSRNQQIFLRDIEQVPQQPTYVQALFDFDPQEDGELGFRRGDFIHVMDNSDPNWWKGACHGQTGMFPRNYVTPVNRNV
LRP1 CR3 domain: LRP1, CR3 domain (Homo sapiens, UniProt Q07954)
UniProt Q07954, sequence (whole entry, looked up): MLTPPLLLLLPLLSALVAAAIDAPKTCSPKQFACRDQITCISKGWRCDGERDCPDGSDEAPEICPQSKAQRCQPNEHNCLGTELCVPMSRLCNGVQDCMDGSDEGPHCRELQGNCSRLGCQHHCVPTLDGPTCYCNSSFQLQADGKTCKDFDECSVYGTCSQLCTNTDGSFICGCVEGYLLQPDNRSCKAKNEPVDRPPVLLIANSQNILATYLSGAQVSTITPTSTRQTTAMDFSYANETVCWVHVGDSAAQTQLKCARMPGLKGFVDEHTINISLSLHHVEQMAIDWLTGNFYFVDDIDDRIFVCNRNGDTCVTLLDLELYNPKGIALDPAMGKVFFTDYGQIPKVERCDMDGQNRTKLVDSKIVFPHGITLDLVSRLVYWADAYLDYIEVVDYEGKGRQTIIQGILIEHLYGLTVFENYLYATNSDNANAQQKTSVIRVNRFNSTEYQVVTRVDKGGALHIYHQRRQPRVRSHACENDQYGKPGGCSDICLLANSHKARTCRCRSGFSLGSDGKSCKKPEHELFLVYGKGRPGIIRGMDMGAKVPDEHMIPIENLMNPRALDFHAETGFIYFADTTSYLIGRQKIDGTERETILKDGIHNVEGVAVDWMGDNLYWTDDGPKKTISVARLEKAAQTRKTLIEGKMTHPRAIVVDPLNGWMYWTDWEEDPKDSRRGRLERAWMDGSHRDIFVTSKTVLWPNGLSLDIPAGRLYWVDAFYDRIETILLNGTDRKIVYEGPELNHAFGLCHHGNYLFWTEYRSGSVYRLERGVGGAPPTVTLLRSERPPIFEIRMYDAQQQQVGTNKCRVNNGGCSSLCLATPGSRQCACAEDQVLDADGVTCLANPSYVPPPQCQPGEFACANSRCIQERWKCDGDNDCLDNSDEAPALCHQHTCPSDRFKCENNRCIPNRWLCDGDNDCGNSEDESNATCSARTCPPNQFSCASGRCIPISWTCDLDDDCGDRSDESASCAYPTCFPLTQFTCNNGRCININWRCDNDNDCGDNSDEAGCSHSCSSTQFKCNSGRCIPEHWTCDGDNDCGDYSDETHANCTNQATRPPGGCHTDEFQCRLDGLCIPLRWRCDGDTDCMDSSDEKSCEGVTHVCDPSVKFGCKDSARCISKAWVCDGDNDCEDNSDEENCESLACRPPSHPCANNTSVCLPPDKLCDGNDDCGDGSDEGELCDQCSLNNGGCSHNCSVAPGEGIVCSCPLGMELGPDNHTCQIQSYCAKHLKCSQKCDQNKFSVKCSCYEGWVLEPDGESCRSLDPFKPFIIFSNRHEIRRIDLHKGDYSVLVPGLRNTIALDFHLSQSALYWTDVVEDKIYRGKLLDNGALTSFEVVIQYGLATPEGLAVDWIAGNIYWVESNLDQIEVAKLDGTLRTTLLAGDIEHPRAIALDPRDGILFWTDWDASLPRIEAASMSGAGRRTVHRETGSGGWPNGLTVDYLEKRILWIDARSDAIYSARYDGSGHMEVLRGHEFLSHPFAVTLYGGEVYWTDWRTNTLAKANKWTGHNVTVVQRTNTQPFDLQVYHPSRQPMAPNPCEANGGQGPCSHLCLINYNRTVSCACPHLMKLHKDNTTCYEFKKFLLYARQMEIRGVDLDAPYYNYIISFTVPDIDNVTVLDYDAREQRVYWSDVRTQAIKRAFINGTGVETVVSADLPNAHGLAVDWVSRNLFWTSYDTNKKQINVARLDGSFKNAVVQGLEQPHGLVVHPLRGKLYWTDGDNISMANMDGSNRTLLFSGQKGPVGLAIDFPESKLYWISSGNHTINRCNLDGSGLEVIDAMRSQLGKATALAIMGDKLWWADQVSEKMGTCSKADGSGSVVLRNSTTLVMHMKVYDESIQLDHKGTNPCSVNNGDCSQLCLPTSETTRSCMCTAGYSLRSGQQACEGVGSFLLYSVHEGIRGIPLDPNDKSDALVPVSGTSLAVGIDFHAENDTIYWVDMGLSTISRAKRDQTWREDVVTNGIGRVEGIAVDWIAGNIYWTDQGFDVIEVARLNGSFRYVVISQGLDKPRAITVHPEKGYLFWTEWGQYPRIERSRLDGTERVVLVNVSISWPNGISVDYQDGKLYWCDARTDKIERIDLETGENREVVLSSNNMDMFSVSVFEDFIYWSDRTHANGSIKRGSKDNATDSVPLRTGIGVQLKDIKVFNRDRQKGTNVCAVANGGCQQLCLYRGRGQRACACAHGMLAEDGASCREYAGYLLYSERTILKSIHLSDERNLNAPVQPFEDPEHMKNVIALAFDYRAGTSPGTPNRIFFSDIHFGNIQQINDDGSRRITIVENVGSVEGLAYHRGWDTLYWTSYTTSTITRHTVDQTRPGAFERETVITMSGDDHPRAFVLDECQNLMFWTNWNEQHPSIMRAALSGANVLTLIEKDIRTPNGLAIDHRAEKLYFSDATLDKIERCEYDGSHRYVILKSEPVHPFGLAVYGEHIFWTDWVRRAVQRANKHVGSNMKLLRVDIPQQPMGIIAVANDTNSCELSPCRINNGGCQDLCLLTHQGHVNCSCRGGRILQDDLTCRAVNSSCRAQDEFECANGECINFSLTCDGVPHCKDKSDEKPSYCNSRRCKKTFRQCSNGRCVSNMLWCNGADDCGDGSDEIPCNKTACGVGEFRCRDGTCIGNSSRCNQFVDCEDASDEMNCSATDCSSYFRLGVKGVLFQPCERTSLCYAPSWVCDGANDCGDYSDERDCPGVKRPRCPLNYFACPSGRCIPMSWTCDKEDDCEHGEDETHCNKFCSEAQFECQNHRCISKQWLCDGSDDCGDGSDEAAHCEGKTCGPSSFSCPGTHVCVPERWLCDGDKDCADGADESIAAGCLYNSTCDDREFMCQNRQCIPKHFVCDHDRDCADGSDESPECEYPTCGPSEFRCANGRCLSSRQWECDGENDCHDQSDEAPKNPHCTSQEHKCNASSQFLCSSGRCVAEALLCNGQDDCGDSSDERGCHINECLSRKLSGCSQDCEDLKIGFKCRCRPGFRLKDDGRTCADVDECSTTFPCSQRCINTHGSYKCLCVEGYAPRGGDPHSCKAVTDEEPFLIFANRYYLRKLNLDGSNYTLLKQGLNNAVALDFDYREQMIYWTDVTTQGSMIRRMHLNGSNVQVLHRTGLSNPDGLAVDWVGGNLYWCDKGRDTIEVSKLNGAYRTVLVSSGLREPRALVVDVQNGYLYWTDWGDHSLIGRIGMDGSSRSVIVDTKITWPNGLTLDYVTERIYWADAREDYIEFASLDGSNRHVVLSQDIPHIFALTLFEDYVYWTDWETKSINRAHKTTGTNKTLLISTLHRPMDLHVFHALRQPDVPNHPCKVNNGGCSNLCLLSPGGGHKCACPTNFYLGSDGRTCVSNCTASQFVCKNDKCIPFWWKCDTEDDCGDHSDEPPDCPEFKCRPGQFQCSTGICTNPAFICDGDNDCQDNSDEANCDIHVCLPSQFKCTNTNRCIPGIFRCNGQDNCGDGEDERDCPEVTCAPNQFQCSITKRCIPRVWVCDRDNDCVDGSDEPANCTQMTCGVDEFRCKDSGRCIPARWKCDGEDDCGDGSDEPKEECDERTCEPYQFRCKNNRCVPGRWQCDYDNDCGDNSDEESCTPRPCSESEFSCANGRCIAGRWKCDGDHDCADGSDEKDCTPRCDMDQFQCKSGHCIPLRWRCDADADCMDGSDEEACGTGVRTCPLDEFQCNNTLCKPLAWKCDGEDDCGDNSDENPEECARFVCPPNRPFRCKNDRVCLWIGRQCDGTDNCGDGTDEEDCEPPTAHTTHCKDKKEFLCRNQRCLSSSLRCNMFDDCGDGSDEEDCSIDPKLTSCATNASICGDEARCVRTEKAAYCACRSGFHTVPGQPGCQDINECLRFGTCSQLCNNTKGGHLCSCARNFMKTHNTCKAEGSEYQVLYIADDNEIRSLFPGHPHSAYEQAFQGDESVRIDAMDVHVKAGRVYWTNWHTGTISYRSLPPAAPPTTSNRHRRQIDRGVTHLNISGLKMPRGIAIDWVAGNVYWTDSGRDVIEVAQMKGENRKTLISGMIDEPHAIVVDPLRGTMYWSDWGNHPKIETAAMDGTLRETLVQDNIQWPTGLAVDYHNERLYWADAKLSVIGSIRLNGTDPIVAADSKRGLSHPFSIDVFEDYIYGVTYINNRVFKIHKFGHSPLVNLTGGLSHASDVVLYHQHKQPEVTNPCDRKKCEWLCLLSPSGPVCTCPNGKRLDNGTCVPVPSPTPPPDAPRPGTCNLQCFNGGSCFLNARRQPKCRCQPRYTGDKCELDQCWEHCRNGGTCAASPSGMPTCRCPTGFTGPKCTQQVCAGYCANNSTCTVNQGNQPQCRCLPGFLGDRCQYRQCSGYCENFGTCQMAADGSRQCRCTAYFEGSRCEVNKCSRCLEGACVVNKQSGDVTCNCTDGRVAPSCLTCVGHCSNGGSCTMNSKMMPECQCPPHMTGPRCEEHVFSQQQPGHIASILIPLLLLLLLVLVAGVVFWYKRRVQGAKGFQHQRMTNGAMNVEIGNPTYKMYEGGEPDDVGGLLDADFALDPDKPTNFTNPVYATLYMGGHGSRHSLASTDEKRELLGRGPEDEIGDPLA
UniProt P11904, sequence (whole entry, looked up): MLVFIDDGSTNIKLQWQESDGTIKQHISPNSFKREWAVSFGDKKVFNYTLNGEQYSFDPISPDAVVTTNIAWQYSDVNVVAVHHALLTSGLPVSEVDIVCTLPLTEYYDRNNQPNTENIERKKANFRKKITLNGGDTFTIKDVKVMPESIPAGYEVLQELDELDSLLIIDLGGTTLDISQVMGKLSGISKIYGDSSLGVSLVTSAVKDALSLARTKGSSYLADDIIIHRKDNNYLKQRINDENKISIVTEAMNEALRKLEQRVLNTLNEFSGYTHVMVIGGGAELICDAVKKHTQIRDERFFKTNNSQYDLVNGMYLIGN

Structure (SMILES)	target	test	test system	setting	scale	Kd
CC(=O)N1CCC[C@H]1C(=O)N[C@@H](CCCNC(=N)N)C(=O)N[C@H](C(=O)N1CCC[C@H]1C(=O)N1CCC[C@H]1C(=O)N1CCC[C@H]1C(=O)N1CCC[C@H]1C(=O)N[C@H](C(=O)N[C@@H](CCCNC(=N)N)C(=O)N[C@@H](CCCNC(=N)N)C(N)=O)C(C)C)C(C)C	Growth factor receptor-bound protein 2, N-terminal SH3 domain (GRB2, Homo sapiens, UniProt P62993)	binding, tryptophan fluorescence	PBS	21 °C		173.1 ± 1.16 µM
COc1ccc(CC2c3cc(OC)c(OC)cc3CCN2CC(=O)N(C)Cc2ccccc2)cc1OC (centres unmarked)	HCRTR1					2.09 ± 0.33 µM
CC[C@H](C)[C@H](NC(=O)[C@H](C)N)C(=O)N1CCC[C@H]1C(=O)N1CCC[C@H]1C(=O)N1CCC[C@H]1C(=O)N[C@@H](CCCNC(=N)N)C(=O)N1CCC[C@H]1C(=O)N1CCC[C@H]1C(=O)N[C@@H](CCCCN)C(=O)N1CCC[C@H]1C(=O)N[C@@H](Cc1c[nH]cn1)C(=O)N1CCC[C@H]1C(=O)O	GRB2	binding, ITC		pH 8		179 µM
Cc1cn([C@H]2C[C@H](O)[C@@H](COP(=O)(O)OP(=O)(O)OP(=O)(O)O)O2)c(=O)[nH]c1=O	DNA polymerase 3 (dpo3, Saccharolobus solfataricus, UniProt P95979, D236A)	nucleotide binding, substrate, single-turnover kinetics		pH 7.5, 37 °C, correct incorporation		57 ± 8 µM
CCCOc1cc2c(cc1OC)CCN(CC(=O)NCc1ccccc1)C2Cc1ccc(OC)c(OC)c1 (centres unmarked)	HCRTR1					0.0173 ± 0.0031 µM
O=S(=O)(O)c1cccc2c(-c3ccc(Nc4ccccc4)c4c(S(=O)(=O)O)cccc34)ccc(Nc3ccccc3)c12	uncharacterized protein (Drosophila suzukii, UniProt A0AB39ZCT4)	fluorescent probe titration				0.812 µM
N=C(N)c1ccc(NCCCCCCCNc2ccc(C(=N)N)cc2)cc1	CTG·CAG repeat hairpin DNA	fluorescence titration		11 CTG·CAG repeats		3.9 ± 0.3 µM
COc1ccc(CC2c3cc(OC)c(OC)cc3CCN2CC(=O)NCCCc2ccccc2)cc1OC (centres unmarked)	HCRTR1					2.37 ± 0.24 µM
COC(=O)[C@@H](N)CCCN=C(N)N	LRP1, CR5 domain (Homo sapiens, UniProt Q07954)	tryptophan fluorescence titration		pH 7.4, 298 K, CR5 domain, ionic strength 0.17		760 ± 80 µM
COCc1c(C(C)C)nc(C(C)C)c(/C=C/[C@@H](O)C[C@@H](O)CC(=O)O)c1-c1ccc(F)cc1	Cytochrome P450 2C8 (CYP2C8, Homo sapiens, UniProt P10632)	binding, equilibrium spectral titration	purified enzyme	pH 7.4, 25 °C, second site, two-site model, with: 2 µM enzyme		3.9 ± 9.3 µM
CC(C)[C@@H](NC(=O)[C@@H](CC(=O)O)NC(=O)c1ccc(S(N)(=O)=O)cc1)C(=O)N[C@H](CC(=O)O)C(=O)N[C@H](CC(=O)O)C(=O)N[C@H](Cc1ccc(O)cc1)C(N)=O	CA2 (Homo sapiens, UniProt P00918)	binding, SPR				0.082 µM
O=C(O)c1cc(=O)[nH]c(=O)n1[C@@H]1OC[C@@H](O)[C@H]1O	Orotidine 5'-phosphate decarboxylase (Saccharomyces cerevisiae S288c, UniProt P03962, Q215A)	HPLC initial velocity		25 °C, lower limit, no saturation		> 100000 µM
O=C1c2c(O)ccc(O)c2C(=O)c2c(NCCNCCO)ccc(NCCNCCO)c21	HIV-1 nucleocapsid-SL2 RNA complex	binding, ESI-FTMS		pH 7.5		11.9 ± 1.8 µM
CC(=O)N[C@@H](CCCCN)C(=O)N[C@@H](CCCNC(=N)N)C(=O)N[C@@H](CC(C)C)C(=O)N[C@@H](CCCNC(=N)N)C(=O)N[C@@H](CCCNC(=N)N)C(=O)N[C@@H](CO)C(=O)N[C@@H](C)C(=O)N[C@@H](Cc1c[nH]cn1)C(=O)N[C@@H](C)C(=O)N[C@@H](CCCNC(=N)N)C(=O)N[C@@H](CCCCN)C(=O)N[C@@H](CCC(=O)O)C(=O)N[C@H](C(=O)N[C@@H](CCC(=O)O)C(=O)N[C@@H](Cc1ccccc1)C(=O)N[C@@H](CC(C)C)C(=O)N[C@@H](CCCNC(=N)N)C(=O)N[C@@H](CC(C)C)C(=O)N[C@@H](CCCCN)C(=O)N[C@@H](CCCNC(=N)N)C(=O)N[C@H](C(=O)N[C@@H](CCCNC(=N)N)C(=O)N[C@@H](CC(C)C)C(=O)NCC(=O)N[C@@H](CC(C)C)C(=O)N[C@@H](CCC(=O)O)C(=O)N[C@@H](Cc1ccc(O)cc1)C(N)=O)[C@@H](C)O)[C@@H](C)O	Protein S100-B (Homo sapiens, UniProt P04271)	binding, isothermal titration calorimetry		low salt, with: Ca2+ 5 mM	lower-affinity site	2 ± 1 µM
COC(=O)[C@@H](N)Cc1c[nH]cn1	LRP1 CR3 domain	tryptophan fluorescence titration		pH 5.5, CR3 domain, low ionic strength		1200 ± 70 µM
COc1ccc(CC2c3cc(OCc4ccccn4)c(OC)cc3CCN2CC(=O)NCc2ccccc2)cc1OC (centres unmarked)	HCRTR1					0.101 ± 0.056 µM
c1ccc2[nH]nnc2c1	CYP2E1 (Oryctolagus cuniculus, UniProt P08682)	binding, type II spectral titration		pH 7.4, 25 °C, first catalytic site		150 µM
COC(=O)[C@@H](N)CCCCN	LRP1 CR3 domain	binding, tryptophan fluorescence titration	isolated CR3 domain	pH 7.4, 298 K, ionic strength 0.02		220 ± 30 µM
CSCC[C@H](NC(=O)[C@H](CC(N)=O)NC(=O)[C@H](CC(N)=O)NC(=O)[C@H](CC(N)=O)NC(=O)[C@H](C)N)C(=O)N[C@@H](Cc1ccc(O)cc1)C(=O)N[C@@H](CCCNC(=N)N)C(=O)N[C@@H](CCCNC(=N)N)C(=O)O	dnaK (Escherichia coli, UniProt P0A6Y8)	peptide binding, surface plasmon resonance		with: ADP		1.69 µM
Nc1ncnc2c1ncn2[C@@H]1O[C@H](COP(=O)(O)OP(=O)(O)OP(=O)(O)O)[C@@H](O)[C@H]1O	parM (Escherichia coli, UniProt P11904)	cell-free assay				0.9 µM
Cn1cc(NC(=O)c2cc(NC(=O)c3cc(NC=O)cn3C)cn2C)cc1C(=O)NCCC(=N)N	HIV-1 SL3 RNA stem-loop	binding, ESI-FTMS titration		pH 7.5		28.5 ± 4.7 µM
COc1ccc(CC2c3cc(OCc4ccccc4)c(OC)cc3CCN2CC(=O)NCc2ccccc2)cc1OC (centres unmarked)	HCRTR1					0.402 ± 0.058 µM
N#Cc1cccc(CN2CCc3ncn(Cc4ccc(Cl)cc4)c(=O)c3C2)c1	CLPP (Homo sapiens, UniProt Q16740)	casein-FITC degradation, activator				0.0322 ± 0.0063 µM
CC(C)[C@H](NC(=O)[C@@H]1CCCN1C(=O)[C@@H]1CCCN1C(=O)[C@@H]1CCCN1)C(=O)N[C@@H](CC(=O)O)C(=O)N[C@@H](CCCNC(=N)N)C(=O)N[C@@H](CC(N)=O)C(=O)N[C@@H](C)C(=O)N[C@@H](CCCCN)C(=O)N1CCC[C@H]1C(=O)N[C@@H](CC(=O)O)C(=O)N[C@@H](CCCNC(=N)N)C(=O)O	GRB2	binding, ITC		pH 8		129 µM
COc1ccc(CC2c3cc(OC)c(OC)cc3CCN2CC(=O)NCc2ccc(NC(C)=O)cc2)cc1OC (centres unmarked)	HCRTR1					> 10 µM
Nc1ncnc2c1ncn2[C@@H]1O[C@H](COP(=O)(O)OP(=O)(O)OP(=O)(O)O)[C@@H](O)[C@H]1O	CSK (Homo sapiens, UniProt P41240)					17 µM
COc1cc(OC)cc(C(=O)Nc2ccc(Cc3ccc(NC(=O)c4cc(OC)cc(OC)c4)cc3)cc2)c1	PPIA (Homo sapiens, UniProt P62937)	binding, SPR		pH 7.4		3.3 µM
CC1N=C(N)N(CCCC(N)C(=O)O)C1=O (centres unmarked)	AGER (Homo sapiens, UniProt Q15109)	binding, fluorescence		pH 6.5		0.031 µM
NC(=O)C1=CN([C@@H]2O[C@H](COP(=O)(O)OP(=O)(O)OC[C@H]3O[C@@H](n4cnc5c(N)ncnc54)[C@H](O)[C@@H]3O)[C@@H](O)[C@H]2O)C=CC1	Enoyl-ACP reductase (Thermus thermophilus, UniProt P83818)	substrate, stopped-flow reductive half-reaction				300 µM

Repeated from above:
Structure (SMILES)	target	test	test system	setting	scale	Kd
COc1ccc(CC2c3cc(OC)c(OC)cc3CCN2CC(=O)NCc2ccc(NC(C)=O)cc2)cc1OC (centres unmarked)	HCRTR1					> 10 µM
